Experimental data pooled from the literature.
Each numbered part is a random draw from the data of one study; scales do not carry over between parts. Changes are numbered by the printed parent chain.

Set 1
Target: tungstate, free oxyanion
Method: microfluidic competitive inhibition
Sample: in vitro, cell-free expressed
Concentration: not given
Setting: derived from inhibition constants, unchanged parent 2230 nM
Reading: lower = stronger binding
Starting sequence: PafA, mature enzyme, eGFP fusion (Elizabethkingia meningoseptica, UniProt Q9KJX5); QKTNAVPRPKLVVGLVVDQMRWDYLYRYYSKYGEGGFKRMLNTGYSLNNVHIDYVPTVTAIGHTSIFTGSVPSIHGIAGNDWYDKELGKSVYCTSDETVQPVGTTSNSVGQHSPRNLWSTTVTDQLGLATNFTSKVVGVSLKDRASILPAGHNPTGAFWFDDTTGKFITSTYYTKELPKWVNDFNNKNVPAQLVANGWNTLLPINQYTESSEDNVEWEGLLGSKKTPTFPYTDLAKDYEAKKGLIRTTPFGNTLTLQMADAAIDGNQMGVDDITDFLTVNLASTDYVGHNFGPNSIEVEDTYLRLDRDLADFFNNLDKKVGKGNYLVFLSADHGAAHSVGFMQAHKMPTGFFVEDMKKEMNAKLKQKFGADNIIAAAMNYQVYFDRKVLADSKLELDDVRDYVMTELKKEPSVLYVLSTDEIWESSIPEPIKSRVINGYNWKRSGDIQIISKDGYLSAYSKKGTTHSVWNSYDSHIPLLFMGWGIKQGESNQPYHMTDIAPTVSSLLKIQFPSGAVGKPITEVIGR
Variant	oxyanion analog dissociation constant
V320G	1.5 µM
A235V	2.09 µM
K85G	2.43 µM

Set 2
Target: CCND2, cyclin fold, Cln2 fusion (human)
Method: yeast growth competition, sequencing
Sample: yeast
Setting: weak parent motif
Relative to: not given
Reading: higher = stronger binding
Starting sequence: viral docking peptide; TSVRRALFTGGSD; partner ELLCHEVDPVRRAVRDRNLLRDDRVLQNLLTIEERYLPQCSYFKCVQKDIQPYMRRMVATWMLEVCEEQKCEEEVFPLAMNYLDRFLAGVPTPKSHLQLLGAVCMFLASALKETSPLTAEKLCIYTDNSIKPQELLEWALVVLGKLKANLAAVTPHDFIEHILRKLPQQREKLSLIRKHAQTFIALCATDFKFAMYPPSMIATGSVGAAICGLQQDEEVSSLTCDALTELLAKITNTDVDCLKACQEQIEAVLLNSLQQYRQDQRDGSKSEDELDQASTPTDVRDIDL
Variant	normalised enrichment score
TSVRHALFTGGSD [R5H]	0.408
TSVHRALFTGGSD [R4H]	-0.121
TSVRRALFTGGAD [S12A]	0.0943
TSVRRALFTHGSD [G10H]	-0.17
TSVRRALFTGGGD [S12G]	-0.251
TSVRRATFTGGSD [L7T]	0.285
TMVRRALFTGGSD [S2M]	0.272
TRVRRALFTGGSD [S2R]	-0.248
TSVRRGLFTGGSD [A6G]	0.202
TSVRRAVFTGGSD [L7V]	0.164
TWVRRALFTGGSD [S2W]	-0.478
TSVRRALETGGSD [F8E]	-0.00823
TLVRRALFTGGSD [S2L]	0.351
TSVRRALFTGISD [G11I]	0.0302
TSVRRALFDGGSD [T9D]	0.0951
TSVRRVLFTGGSD [A6V]	0.132
TSVRRALFYGGSD [T9Y]	0.419
TSVRRALFTGGFD [S12F]	-0.172

Set 3
Target: Interferon regulatory factor 7, full length, phosphomimetic (IRF7, Homo sapiens, UniProt Q92985, residues 1-503, S471D/S472D/S475D/S476D/S477D/S483D/S484D/S487D)
Method: protein-binding microarray
Form: double-stranded DNA, one strand shown
Sample: in vitro
Concentration: 2200 nM top
Setting: 60-bp whole probe
With: salmon DNA 0.4 mg/ml
Relative to: random background probes
Reading: higher = stronger binding
All sequences stand within: GCCTAGCAC … GTCTTGATTCGCTTGACGCTGCTG
Construct (chain): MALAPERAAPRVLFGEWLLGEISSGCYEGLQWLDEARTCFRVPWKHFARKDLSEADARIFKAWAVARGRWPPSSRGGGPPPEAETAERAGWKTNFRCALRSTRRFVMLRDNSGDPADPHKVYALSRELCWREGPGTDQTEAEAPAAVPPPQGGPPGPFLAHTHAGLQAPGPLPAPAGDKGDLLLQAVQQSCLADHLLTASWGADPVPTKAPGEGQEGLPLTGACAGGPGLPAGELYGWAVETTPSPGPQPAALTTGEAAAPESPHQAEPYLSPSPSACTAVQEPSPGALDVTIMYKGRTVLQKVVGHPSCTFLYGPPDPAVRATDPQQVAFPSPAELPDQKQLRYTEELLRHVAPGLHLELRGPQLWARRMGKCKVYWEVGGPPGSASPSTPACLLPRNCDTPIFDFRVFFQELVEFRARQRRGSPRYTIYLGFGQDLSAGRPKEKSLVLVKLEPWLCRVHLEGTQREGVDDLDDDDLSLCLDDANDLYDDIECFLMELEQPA
Oligonucleotide	fitted relative affinity
GACGGTATCCTACTGCTTACGTGCTAG	0.901 z-score
GTAGGACTGGACTATCGGTTAGTGCTA	-0.44 z-score
GGCGGTTTCCTTATCCTGACGTGCTAG	2 z-score
TCATTTTCCTCTGTCATACTGTGCTAG	3.92 z-score
GACCGTATCGGGTTTCGGGACGTGCTA	1.64 z-score
GACGATTCGAGTTTCGAGACGTGCTAG	2.84 z-score
TTAGGATTGGGGACTGGGTTAGTGCTA	-0.36 z-score
TTAGGACTGGAAACTGGGTTAGTGCTA	-0.498 z-score

Set 4
Target: Phosphate system positive regulatory protein PHO4, full length, GST-tagged (PHO4, Saccharomyces cerevisiae, UniProt P07270, residues 1-312)
Method: competition protein-binding microarray
Form: double-stranded DNA, one strand shown
Sample: in vitro
Concentration: 2 µM
Setting: whole 60-bp probe, lowest competitor level
With: Cbf1 competitor, 0.05 µM
Reading: higher = stronger binding
All sequences stand within: … GTCTTGATTCGCTTGACGCTGCTG
Target sequence (chain): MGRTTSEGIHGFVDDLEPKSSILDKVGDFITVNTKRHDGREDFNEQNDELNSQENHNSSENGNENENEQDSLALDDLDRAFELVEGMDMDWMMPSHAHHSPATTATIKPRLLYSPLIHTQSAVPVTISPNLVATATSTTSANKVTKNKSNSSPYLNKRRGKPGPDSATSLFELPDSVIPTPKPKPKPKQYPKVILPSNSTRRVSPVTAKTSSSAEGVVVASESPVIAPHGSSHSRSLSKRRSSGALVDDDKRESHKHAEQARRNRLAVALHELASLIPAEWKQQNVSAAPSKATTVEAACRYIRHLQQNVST
Oligonucleotide	fluorescence intensity
GAATGGAGTAAAGGCAGCGTGGGTACCCTGTGGAAA	8120 a.u.
CTTCTGTAAATTTTTCACGTGCCTTGACGCGCCCCG	15000 a.u.
TCACGGAACAACCGTCAGCGGAGATTAGAGAAGCCT	3230 a.u.
GTCTTGTCTCATTGAAGCGTGGGTGTCCCCACTTCA	7730 a.u.
CCCGTTGAGCAGTGCCCCGTGGAACCGTAAACTATC	8010 a.u.
TTCAACGCCCTGGCTGATGTGACGCTGTTGGTGGAG	4430 a.u.
CAATTTCATATTCACCACGTGCCGAACTTTGGGATG	18900 a.u.
ACTTCTCCTCTGATCTTCGTGATGGGAGTTTTGAGT	5450 a.u.
